Published values collected from several papers.
Lines come from different studies, so protocols differ. Values joined by “and” are separate records of one study, mostly repeats; a detail may differ. Numbers after ± are the reported error.
T1: RNA, 2'-deoxy at 37-40 (Fusobacterium nucleatum); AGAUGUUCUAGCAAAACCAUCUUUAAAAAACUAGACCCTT
Sequence of UniProt Q64663 (whole entry, unmodified, looked up): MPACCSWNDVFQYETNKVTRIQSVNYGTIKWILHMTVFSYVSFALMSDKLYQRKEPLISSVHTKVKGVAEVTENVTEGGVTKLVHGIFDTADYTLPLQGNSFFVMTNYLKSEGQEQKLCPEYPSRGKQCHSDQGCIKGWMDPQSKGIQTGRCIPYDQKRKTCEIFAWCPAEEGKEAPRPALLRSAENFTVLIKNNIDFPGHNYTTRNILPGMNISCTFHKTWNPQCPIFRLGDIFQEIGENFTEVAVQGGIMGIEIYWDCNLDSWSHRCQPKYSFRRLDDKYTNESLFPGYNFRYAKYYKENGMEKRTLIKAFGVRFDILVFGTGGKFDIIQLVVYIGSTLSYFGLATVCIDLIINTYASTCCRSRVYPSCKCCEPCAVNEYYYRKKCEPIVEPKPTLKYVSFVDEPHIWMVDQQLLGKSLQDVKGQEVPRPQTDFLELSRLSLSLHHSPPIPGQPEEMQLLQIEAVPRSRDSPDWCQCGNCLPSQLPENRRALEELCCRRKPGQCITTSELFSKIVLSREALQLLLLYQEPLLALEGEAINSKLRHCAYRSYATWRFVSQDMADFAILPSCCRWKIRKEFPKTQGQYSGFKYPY
Sequence of UniProt Q9UBL9 (whole entry, looked up): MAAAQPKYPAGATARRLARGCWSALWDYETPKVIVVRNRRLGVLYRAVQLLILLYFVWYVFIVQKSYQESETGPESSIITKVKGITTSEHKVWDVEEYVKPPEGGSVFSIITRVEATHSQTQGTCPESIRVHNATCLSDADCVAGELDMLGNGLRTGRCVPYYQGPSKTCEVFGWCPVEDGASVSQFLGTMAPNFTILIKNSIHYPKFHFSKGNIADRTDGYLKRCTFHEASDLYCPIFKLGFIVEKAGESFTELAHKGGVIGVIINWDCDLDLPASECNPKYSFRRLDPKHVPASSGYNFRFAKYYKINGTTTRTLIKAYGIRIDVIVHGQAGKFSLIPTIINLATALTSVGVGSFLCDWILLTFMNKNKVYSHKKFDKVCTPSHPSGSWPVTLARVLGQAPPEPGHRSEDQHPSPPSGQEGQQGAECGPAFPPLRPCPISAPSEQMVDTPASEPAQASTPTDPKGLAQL
Sequence of UniProt P47898 (whole entry, looked up): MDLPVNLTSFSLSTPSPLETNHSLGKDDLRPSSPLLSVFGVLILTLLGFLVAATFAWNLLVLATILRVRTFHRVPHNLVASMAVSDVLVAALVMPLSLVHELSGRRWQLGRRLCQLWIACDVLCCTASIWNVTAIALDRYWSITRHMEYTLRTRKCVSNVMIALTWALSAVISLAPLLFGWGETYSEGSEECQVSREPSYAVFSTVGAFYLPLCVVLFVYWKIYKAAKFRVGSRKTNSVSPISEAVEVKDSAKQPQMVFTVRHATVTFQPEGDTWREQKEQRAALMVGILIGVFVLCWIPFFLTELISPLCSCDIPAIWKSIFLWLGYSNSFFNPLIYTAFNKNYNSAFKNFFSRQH
Sequence of UniProt Q96NY8 (whole entry, looked up): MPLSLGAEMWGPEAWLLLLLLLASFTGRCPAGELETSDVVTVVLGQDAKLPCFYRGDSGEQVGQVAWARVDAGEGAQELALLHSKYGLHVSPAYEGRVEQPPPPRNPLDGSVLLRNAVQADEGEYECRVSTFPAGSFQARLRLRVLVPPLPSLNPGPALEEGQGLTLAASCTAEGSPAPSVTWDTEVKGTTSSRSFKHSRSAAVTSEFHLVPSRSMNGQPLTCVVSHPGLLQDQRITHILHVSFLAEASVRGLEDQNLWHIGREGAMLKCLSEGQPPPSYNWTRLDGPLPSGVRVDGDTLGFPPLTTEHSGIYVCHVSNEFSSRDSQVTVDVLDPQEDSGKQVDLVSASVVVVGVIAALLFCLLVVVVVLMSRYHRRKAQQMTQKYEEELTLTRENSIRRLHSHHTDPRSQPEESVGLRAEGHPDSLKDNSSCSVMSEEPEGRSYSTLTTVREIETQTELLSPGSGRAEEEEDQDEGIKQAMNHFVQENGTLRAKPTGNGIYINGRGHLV
Sequence of UniProt P29597 (whole entry, looked up): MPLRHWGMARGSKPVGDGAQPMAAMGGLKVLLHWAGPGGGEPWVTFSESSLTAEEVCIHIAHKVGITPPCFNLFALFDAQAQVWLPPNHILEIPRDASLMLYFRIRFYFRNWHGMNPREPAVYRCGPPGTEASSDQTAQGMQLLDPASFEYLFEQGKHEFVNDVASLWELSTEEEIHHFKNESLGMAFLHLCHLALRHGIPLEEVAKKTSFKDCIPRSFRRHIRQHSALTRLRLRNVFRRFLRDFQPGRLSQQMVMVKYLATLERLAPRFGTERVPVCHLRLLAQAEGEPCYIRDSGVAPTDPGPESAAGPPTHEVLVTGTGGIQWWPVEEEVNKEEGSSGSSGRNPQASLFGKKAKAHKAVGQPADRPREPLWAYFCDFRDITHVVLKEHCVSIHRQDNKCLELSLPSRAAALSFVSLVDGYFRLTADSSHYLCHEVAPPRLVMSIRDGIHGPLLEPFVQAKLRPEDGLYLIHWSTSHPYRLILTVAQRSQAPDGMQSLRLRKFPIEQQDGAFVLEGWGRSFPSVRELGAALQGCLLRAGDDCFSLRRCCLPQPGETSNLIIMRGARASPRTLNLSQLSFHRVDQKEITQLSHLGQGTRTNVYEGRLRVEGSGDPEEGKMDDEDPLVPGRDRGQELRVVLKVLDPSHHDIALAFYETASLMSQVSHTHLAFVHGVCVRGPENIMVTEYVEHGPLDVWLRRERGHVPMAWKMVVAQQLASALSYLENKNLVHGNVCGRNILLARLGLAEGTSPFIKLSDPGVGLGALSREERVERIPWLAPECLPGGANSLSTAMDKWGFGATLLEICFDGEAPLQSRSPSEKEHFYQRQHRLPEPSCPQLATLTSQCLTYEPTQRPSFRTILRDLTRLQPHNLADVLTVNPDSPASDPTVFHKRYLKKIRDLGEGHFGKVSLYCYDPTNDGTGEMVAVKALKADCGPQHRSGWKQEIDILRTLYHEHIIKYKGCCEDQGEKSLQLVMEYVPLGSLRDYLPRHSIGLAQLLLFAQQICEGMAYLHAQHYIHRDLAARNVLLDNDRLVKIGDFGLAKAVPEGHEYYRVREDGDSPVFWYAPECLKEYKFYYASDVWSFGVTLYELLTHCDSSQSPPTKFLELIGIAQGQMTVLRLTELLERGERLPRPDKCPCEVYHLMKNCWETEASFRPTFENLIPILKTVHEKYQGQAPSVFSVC
Sequence of UniProt Q5AP97 (whole entry, looked up): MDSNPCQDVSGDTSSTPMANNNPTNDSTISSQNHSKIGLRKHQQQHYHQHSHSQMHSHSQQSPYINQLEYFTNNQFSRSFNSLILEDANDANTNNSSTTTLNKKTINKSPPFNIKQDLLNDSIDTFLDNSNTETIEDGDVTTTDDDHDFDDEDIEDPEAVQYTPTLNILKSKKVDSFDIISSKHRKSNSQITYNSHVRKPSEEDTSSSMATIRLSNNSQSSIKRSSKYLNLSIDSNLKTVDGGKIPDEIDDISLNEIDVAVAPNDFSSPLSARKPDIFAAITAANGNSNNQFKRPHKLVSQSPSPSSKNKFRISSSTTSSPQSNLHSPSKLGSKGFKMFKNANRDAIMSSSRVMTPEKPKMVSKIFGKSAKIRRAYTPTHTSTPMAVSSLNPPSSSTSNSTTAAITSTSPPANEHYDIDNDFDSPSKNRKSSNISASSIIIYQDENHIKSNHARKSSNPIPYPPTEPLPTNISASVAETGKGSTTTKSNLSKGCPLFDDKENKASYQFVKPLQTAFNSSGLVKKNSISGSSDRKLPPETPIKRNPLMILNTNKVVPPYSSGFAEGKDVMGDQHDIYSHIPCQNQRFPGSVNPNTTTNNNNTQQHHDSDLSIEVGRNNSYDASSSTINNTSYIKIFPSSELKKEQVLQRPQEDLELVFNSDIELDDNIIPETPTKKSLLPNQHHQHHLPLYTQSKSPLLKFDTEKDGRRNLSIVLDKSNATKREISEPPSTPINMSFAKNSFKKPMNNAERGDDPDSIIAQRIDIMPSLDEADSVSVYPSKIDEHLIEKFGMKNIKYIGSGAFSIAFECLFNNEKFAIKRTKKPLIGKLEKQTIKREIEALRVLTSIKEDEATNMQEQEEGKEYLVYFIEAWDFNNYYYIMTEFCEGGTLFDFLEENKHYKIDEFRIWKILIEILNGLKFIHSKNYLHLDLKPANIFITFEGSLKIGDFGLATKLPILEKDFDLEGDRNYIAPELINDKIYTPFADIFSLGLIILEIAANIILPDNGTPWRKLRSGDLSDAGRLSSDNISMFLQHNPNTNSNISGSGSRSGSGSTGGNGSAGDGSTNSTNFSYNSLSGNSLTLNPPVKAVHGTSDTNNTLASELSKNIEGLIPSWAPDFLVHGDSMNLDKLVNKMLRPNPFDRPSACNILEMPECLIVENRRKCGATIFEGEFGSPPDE
Sequence of UniProt P22736 (whole entry, looked up): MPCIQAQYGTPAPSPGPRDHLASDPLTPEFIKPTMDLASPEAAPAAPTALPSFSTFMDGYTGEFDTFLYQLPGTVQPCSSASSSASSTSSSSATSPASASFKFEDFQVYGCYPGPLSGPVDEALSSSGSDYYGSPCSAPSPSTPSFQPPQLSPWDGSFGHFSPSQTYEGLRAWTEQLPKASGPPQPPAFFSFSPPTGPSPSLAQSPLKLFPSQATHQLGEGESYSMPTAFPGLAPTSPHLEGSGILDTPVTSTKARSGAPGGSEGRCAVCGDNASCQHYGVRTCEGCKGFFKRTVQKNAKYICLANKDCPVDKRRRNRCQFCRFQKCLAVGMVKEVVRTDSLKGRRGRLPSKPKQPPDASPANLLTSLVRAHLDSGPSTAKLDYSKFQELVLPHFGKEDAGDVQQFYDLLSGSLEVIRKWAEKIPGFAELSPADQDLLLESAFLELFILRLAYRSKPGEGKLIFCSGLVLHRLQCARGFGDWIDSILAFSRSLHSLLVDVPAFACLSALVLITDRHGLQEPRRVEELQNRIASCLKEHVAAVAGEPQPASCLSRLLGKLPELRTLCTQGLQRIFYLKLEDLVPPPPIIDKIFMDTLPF

For `NCCCS(=O)(=O)O`, “normalised MST signal” read 0.0635 (SLC6A6 (Homo sapiens, UniProt P31641, Y138A); binding, microscale thermophoresis; 3.91 µM, room temperature, together with: 50 nM labelled protein; higher = more binding).
`CCCC[C@@H]1NC(=O)[C@H](Cc2ccc(O)cc2)NC(=O)[C@@H]2CCCN2C(=O)[C@H](CC(=O)O)NC(=O)[C@H](C)NC(=O)[C@H](Cc2ccccc2)NC(=O)[C@@H]2CSCCC(=O)N3CN(CN(C3)C(=O)CCSC[C@@H](C(N)=O)NC1=O)C(=O)CCSCCC(=O)N[C@@H](CC(C)(C)C)C(=O)N1CCC[C@H]1C(=O)N[C@@H](CCC(=O)O)C(=O)N[C@H](CCCCNC(=O)CCc1cn(CCOCCOCCOCCN(CCOCCOCCOCCC(=O)N[C@H]3CSCCC(=O)N4CN5CN(C4)C(=O)CCSC[C@H](NC(=O)[C@@H](CC(=O)O)NC(=O)[C@H](Cc4cccc6ccccc46)NC(=O)[C@@H]4CCCN4C3=O)C(=O)N[C@@H](CCSC)C(=O)N[C@@H](CCCCNC(=N)N)C(=O)N[C@@H](CC(=O)O)C(=O)N[C@@H](Cc3c[nH]c4ccccc34)C(=O)N[C@@H](CO)C(=O)N[C@@H]([C@@H](C)O)C(=O)N3CCC[C@H]3C(=O)N3C[C@H](O)C[C@H]3C(=O)N[C@@H](Cc3c[nH]c4ccccc34)C(=O)N[C@H](C(N)=O)CSCCC5=O)CCOCCOCCOCCn3cc(CCC(=O)NCCCC[C@H]4NC(=O)[C@H](CCC(=O)O)NC(=O)[C@@H]5CCCN5C(=O)[C@H](CC(C)(C)C)NC(=O)CCSCCC(=O)N5CN6CN(C5)C(=O)CCSC[C@H](NC(=O)[C@H](Cc5ccc(O)cc5)NC(=O)[C@@H]5CCCN5C4=O)C(=O)N[C@@H](Cc4ccccc4)C(=O)N[C@@H](C)C(=O)N[C@@H](CC(=O)O)C(=O)N4CCC[C@H]4C(=O)N[C@@H](Cc4ccc(O)cc4)C(=O)N[C@@H](CCCC)C(=O)N[C@H](C(N)=O)CSCCC6=O)nn3)nn1)C(=O)N1CCC[C@H]1C(=O)N[C@@H](Cc1ccc(O)cc1)C(=O)N2` gave an Emax of 67 fold (Tumor necrosis factor receptor superfamily member 9/Nectin-4 (Homo sapiens, UniProt Q07011+Q96NY8); reporter gene, agonist; HT-1376 coculture with reporter cells; baseline: background).
`Oc1ccccc1-c1n[nH]cc1-c1ccnc2ccccc12` — result for “log2 fold change”: 0.05 (Mitosis inhibitor protein kinase SWE1 (SWE1, Candida albicans, UniProt Q5AP97); kinase binding, MIB/MS competition; Candida albicans lysate; 1 µM; baseline: DMSO, negative = stronger binding).
For `Nc1nc2[nH]cc(C(=O)O)c2c(=O)[nH]1`, the Kd was 11 µM (T1, RNA, 2'-deoxy at 37-40 (Fusobacterium nucleatum); MST; apparent).
`O=C(Nc1ccccc1OS(=O)(=O)c1ccc(F)cc1)c1ccc2ncccc2c1` has a fluorescence increase of 70.6 ± 2.05% (P2X purinoceptor 2 (P2RX2, Homo sapiens, UniProt Q9UBL9); calcium mobilization; MCF7 stably transfected; 100 µM, together with: ATP 100 µM).
`Nc1nnc(-c2cccc(Cl)c2Cl)c(N)n1`: “slow recovery component” 42% (SCN5A (Homo sapiens, UniProt Q14524); sodium current block kinetics; 25 µM).
`CCN1CCN(c2cc(N3CCN(CC)CC3)nc(NCCNc3ccnc4cc(Cl)ccc34)n2)CC1` has an activation of 0.95 ± 0.21 fold (Nuclear receptor subfamily 4 group A member 1 (NR4A1, Homo sapiens, UniProt P22736); reporter gene, Gal4 hybrid reporter; 1 µM; baseline: vehicle).
`C[C@@H](O)[C@H]1C(=O)N2C(C(=O)O)=C(SCCN=CN)C[C@H]12` has a Km of 0.0343 µM (beta-lactamase OXA-1152; enzyme activity, substrate, HPLC hydrolysis).
`Nc1ncnc2c1ncn2[C@@H]1O[C@H](COP(=O)(O)OP(=O)(O)OP(=O)(O)O)[C@@H](O)[C@H]1O` has a normalized current of 0.658 and 0.6 and 0.533 (P2X purinoceptor 7 (P2rx7, Rattus norvegicus, UniProt Q64663, I214A/R125A); ion current, agonist, two-electrode voltage clamp; Xenopus laevis oocytes; 100 µM; baseline: highest concentration response).
`CCCC(CCC)c1nc2c(Nc3ccc(C#CCCCCCCCCN)cc3)nc3ccccc3c2[nH]1`: off-target affinity “inactive” (HTR5A (Homo sapiens, UniProt P47898); PDSP screening).
With `Nc1ncnc2c1ncn2[C@@H]1O[C@H](COP(=O)(O)CP(=O)(O)OP(=O)(O)O)[C@@H](O)[C@H]1O` the calcium influx was 0% (P2X purinoceptor 1 (P2RX1, Homo sapiens, UniProt P51575, F188L); calcium influx; 3.16 nM; baseline: ionomycin response).
`Cl.[2H]C([2H])([2H])CC(=O)c1cnc(NC(=O)C2CC2)cc1Nc1cccc(-c2ncn(C([2H])([2H])[2H])n2)c1OC` — result for “time to return to baseline”: 24 to 48 h (TYK2 (Homo sapiens, UniProt P29597); IFNα-induced STAT1 phosphorylation, flow cytometry; human, whole blood T cells; concentration not given, after last dose day 14, together with: IFN-alpha).

A few entries again:
`Nc1ncnc2c1ncn2[C@@H]1O[C@H](COP(=O)(O)OP(=O)(O)OP(=O)(O)O)[C@@H](O)[C@H]1O` has a normalized current of 0.658 and 0.6 and 0.533 (P2X purinoceptor 7 (P2rx7, Rattus norvegicus, UniProt Q64663, I214A/R125A); ion current, agonist, two-electrode voltage clamp; Xenopus laevis oocytes; 100 µM; baseline: highest concentration response).
With `Nc1ncnc2c1ncn2[C@@H]1O[C@H](COP(=O)(O)CP(=O)(O)OP(=O)(O)O)[C@@H](O)[C@H]1O` the calcium influx was 0% (P2X purinoceptor 1 (P2RX1, Homo sapiens, UniProt P51575, F188L); calcium influx; 3.16 nM; baseline: ionomycin response).
